Published values gathered from unrelated publications.
Numbered parts are unrelated; each lists some results of a single study.

Study 1
Target: RNA binding protein fox-1 homolog 2, RRM domain, GST-SBP tag (RBFOX2, Homo sapiens, UniProt O43251-10, residues 100-194)
Technique: RNA Bind-n-Seq
Form: RNA
Medium: in vitro
Concentration: 365 nM
Notes: natural RNA segment, single round, ends assumed
Reference: no-protein control
Direction: higher = stronger binding
Target sequence (chain): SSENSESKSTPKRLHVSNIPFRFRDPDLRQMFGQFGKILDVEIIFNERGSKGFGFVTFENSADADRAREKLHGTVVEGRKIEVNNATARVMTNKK
Under “RBNS enrichment (R)”, `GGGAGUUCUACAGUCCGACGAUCAGCCGCAAGUCUCAGGGGGCUUUUGUCUGAGGACCUUCUUGGGGCCAGUCUCUGAGGACGCUGCCACCCUAGAGCACAUGCAUGCCCAGCCAUUCUUCCUGCUUCUGGCCUGGAAUUCUCGGGUGCCAA` is recorded as 4.
`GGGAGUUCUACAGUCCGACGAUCCUCCUGGGAGGGGCGUUCUCCUGGCUUGAGAAGUAGCUGUGUAGUGAAGGCACAGGGUUGUGUGGGUGACUAACUUCACACGGCAGAAGAGAUGUUGCUCUAAUGCUCACUGGAAUUCUCGGGUGCCAA`: “RBNS enrichment (R)” 0.607.
Under “RBNS enrichment (R)”, `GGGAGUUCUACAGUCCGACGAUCCCAUCCCAACCCAGGGAGGCCUGUGUCACUCUGGCACAAGCUGCCACCACCAGCCACCCACACCCACCCCAGCACACCUCACACGGGACCACAGCCGCGCUGCCGAGGGCUGGAAUUCUCGGGUGCCAA` is recorded as 1.36.
Under “RBNS enrichment (R)”, `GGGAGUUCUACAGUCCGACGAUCUGCGGCAGUGUUCCUUGUGCCCGUGGGGCCGGGAGCGAGUAAAGUCUGGGCCAGGCUGUGUGUGUGUUCUUUGCUUUGAGGACUGGUGUUCUCUUUGGGGAUCCUGAUCCUGGAAUUCUCGGGUGCCAA` is recorded as 0.721.
Under “RBNS enrichment (R)”, `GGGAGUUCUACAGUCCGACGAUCGCCUCGCUGGUCUUUCACGUCCUCCUGAUUGACGUGCACAACCCGAAGGACGCUGUCCAGCUAGAGACGCUGGAGCUCCCCCCCGGCUGUGUCCGCAGAGCCGGGGCCGGUGGAAUUCUCGGGUGCCAA` is recorded as 0.179.
For `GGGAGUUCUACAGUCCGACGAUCCUCGAUCACCCGUGUAUUCUUUGACCAGUAAAUGACCACACCUCAAUGAUGGUAAAACAGCAUCAUCAGUAAGCUAUCUUAUAUGCCUCAUCCUGUGAGUUUGAGCUUCAUGGAAUUCUCGGGUGCCAA`, “RBNS enrichment (R)” read 0.311.
`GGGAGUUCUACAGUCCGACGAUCGGACAGCUGCAGCCUGGCUAGGCCACUGACCCCACAGUCCAUAUAAGCUGACCAUGCAGCUCGCUGCUGGCCCCCAGUAAGCACCCCUUCCCACCGUCCACUCCCCGUCCUGGAAUUCUCGGGUGCCAA`: “RBNS enrichment (R)” 0.367.
`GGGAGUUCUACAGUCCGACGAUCUAGCACUUUUUCAGAGUCUCCUAGGCGCUGUUGCAGCCCAGCUGGGGCAGCUAGCAUGCCAGGUUGGUCUUUAGGCACCAGAGUCUUUAACAAAAAAAUCCUCUAGUACUUGGAAUUCUCGGGUGCCAA` — result for “RBNS enrichment (R)”: 0.857.

Study 2
Target: Histone acetyltransferase KAT6A, both winged helices, GST fusion (KAT6A, Homo sapiens, UniProt Q92794, residues 1-181)
Technique: protein binding microarray
Form: double-stranded DNA, one strand shown
Medium: in vitro
Concentration: not given
Notes: 8-mer, flanks averaged, mean of 2 arrays, mostly near background
Reference: not given
Direction: higher = stronger binding
Target sequence (chain): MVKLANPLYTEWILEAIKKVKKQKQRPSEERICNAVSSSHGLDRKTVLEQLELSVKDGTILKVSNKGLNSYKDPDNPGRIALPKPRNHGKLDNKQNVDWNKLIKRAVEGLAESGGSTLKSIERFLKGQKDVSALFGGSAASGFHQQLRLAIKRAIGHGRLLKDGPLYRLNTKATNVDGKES
With `AAAATGGG` the E-score was -0.0946.
With `CCGATTTC` the E-score was 0.00993.
The E-score of `ACATCGCC` is reported as 0.157.
`ATCATCGA` has an E-score of -0.0539.
`CGGGGCAA` has an E-score of -0.0298.
With `CTATCTTA` the E-score was -0.135.
`GCTTGCCA` has an E-score of -0.0546.
`TAGGCACA` gave an E-score of -0.0848.
`CATCGGGC` has an E-score of 0.0654.
With `ATTACCGG` the E-score was 0.184.
For `ATTTACTG`, the E-score was -0.153.
`GTGGAATA` gave an E-score of -0.0889.
With `ATCTTGAC` the E-score was -0.156.
`GGACAAAC` has an E-score of -0.00848.
`GAAGCTAC` has an E-score of -0.00121.
`CTTCGGGA` has an E-score of -0.0321.
`GAGTCGAA` has an E-score of -0.15.
`GCCCAACA` gave an E-score of -0.057.

Study 3
Target: Ras GTPase-activating protein-binding protein 1, RRM domain (G3BP1, Homo sapiens, UniProt Q13283)
Sequence of UniProt Q13283 (whole entry, looked up): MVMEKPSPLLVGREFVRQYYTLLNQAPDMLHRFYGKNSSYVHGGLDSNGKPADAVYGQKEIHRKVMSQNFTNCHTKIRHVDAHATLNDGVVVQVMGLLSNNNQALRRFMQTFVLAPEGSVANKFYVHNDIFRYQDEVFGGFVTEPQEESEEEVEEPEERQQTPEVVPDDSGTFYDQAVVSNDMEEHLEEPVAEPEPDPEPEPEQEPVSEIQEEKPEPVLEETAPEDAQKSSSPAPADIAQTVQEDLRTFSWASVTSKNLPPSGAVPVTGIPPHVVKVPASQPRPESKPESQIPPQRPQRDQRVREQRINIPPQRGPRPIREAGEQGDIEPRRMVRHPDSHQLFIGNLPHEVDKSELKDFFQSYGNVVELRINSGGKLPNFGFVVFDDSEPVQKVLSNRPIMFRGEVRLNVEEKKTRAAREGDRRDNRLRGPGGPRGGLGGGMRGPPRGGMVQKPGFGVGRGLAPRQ
Technique: RNA Bind-n-Seq
Form: RNA
Medium: in vitro
Concentration: 1 µM
Notes: whole 134-nt RNA, ends assumed
With: 150 mM KCl
Reference: input library
Direction: higher = stronger binding
`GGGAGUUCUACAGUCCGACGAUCGUCCUGUGCUACACAUCGUAUGUACCGAAUCGGGGUGGGGAAAGGGGUUUUUUUGGGGAAAGUAUUAUGUUACGCCGUUCGGAUCUGCACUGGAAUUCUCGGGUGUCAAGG` gave a log2 enrichment of 1.08.
For `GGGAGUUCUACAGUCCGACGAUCUCAAGUCCUGUGCUACACAUCGUAUGUACCGAAUCGGGCCGGCCGGGGCCGGGGAAAGUAUUAUGUUACGCCGUUCGGAUCUGCACUUCCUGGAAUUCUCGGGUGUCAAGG`, the log2 enrichment was -0.653.
`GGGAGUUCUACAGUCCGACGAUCCUCAAGUCCUGUGCUACACAUCGUAUGUACCGAAUCGGGCCCGGCCCGGCCCGGAAAGUAUUAUGUUACGCCGUUCGGAUCUGCACUUCCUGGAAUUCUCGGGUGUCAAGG` has a log2 enrichment of -0.896.
`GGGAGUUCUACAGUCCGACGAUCUCCUGUGCUACACAUCGUAUGUACCGAAUCGGGAAAGGGUUUUUUUGGGUUUUUUUGGGAAAGUAUUAUGUUACGCCGUUCGGAUCUGCAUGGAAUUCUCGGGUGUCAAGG` has a log2 enrichment of -0.0611.
With `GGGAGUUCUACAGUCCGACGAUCAGUCCUGUGCUACACAUCGUAUGUACCGAAUCGGUUUUUGGGUUUUUGGGUUUUUGGAAAGUAUUAUGUUACGCCGUUCGGAUCUGCACUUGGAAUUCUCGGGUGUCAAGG` the log2 enrichment was -0.0975.
With `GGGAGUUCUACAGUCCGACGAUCCCUGUGCUACACAUCGUAUGUACCGAAUCGGGGAAAAAAAGGGGUUUUUGGGGUUUGGGGAAAGUAUUAUGUUACGCCGUUCGGAUCUGCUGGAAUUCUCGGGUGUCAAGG` the log2 enrichment was 0.835.
The log2 enrichment of `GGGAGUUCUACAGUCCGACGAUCCCUGUGCUACACAUCGUAUGUACCGAAUCAAACCCCCCCAAACCCCCCCAAAUUUUUAAAAAAGUAUUAUGUUACGCCGUUCGGAUCUGCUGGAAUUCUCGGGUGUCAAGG` is reported as -0.0269.
`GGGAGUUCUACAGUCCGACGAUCAGUCCUGUGCUACACAUCGUAUGUACCGAAUCGGAAAAAGGAAAAAGGAAAAAGGGGAAAGUAUUAUGUUACGCCGUUCGGAUCUGCACUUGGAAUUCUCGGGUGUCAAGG` has a log2 enrichment of -0.0128.
`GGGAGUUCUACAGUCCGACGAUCGUCCUGUGCUACACAUCGUAUGUACCGAAUCAAAUUUAAACCCCCAAAUUUUUUUAAAAAAGUAUUAUGUUACGCCGUUCGGAUCUGCACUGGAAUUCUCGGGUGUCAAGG` gave a log2 enrichment of -0.375.

Study 4
Target: PABPC1L2, full length, GST fusion (mouse, UniProt A0ABA7IW68)
Technique: RNAcompete
Form: RNA
Medium: in vitro
Concentration: 20 nM
Notes: 7-mer, probes averaged, single round
Reference: mean of 7-mers
Direction: higher = stronger binding
Construct (chain): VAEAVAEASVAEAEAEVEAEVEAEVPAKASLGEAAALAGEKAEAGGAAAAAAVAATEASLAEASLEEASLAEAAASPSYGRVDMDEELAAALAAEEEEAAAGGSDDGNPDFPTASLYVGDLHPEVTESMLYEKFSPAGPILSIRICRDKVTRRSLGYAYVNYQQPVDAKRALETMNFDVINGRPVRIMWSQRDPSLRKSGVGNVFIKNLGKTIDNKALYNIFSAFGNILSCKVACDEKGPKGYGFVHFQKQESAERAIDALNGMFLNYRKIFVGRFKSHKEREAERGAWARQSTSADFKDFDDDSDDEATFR
The 7-mer Z-score of `AUGCUAG` is reported as -0.0971.
With `GACGCUG` the 7-mer Z-score was -0.211.
For `GGCGGCG`, the 7-mer Z-score was 0.309.
`CAUCCGG` has a 7-mer Z-score of -0.132.
With `CCGUAUU` the 7-mer Z-score was -0.329.
`AAGGAGG` has a 7-mer Z-score of 0.352.
For `CUAAUAG`, the 7-mer Z-score was -0.315.
With `CGAGCUG` the 7-mer Z-score was -0.186.
`CAGGGAG` has a 7-mer Z-score of 0.14.
For `UUUGUCA`, the 7-mer Z-score was -0.248.
`GAUGCCC` has a 7-mer Z-score of -0.291.
`CGUCCGG` gave a 7-mer Z-score of -0.17.
`CCUCCUU` gave a 7-mer Z-score of -0.434.
`CACAAAA` gave a 7-mer Z-score of 5.2.
With `GUGACUG` the 7-mer Z-score was -0.0464.
The 7-mer Z-score of `GUUCAGU` is reported as -0.246.
For `AAUUCAG`, the 7-mer Z-score was 0.305.
The 7-mer Z-score of `AUACAAA` is reported as 1.72.
For `ACAGAAG`, the 7-mer Z-score was 0.144.
For `GUCUAGA`, the 7-mer Z-score was -0.19.
The 7-mer Z-score of `UCUGGAG` is reported as -0.112.
For `UCCAGAA`, the 7-mer Z-score was 0.066.
The 7-mer Z-score of `GACUGAA` is reported as 0.0352.
For `AAACCUA`, the 7-mer Z-score was 0.448.
The 7-mer Z-score of `CCGUUUA` is reported as -0.325.

Study 5
Target: Sal-like protein 4, full length isoform A (SALL4, Homo sapiens, UniProt Q9UJQ4, residues 1-1053)
Sequence of UniProt Q9UJQ4 (whole entry, looked up): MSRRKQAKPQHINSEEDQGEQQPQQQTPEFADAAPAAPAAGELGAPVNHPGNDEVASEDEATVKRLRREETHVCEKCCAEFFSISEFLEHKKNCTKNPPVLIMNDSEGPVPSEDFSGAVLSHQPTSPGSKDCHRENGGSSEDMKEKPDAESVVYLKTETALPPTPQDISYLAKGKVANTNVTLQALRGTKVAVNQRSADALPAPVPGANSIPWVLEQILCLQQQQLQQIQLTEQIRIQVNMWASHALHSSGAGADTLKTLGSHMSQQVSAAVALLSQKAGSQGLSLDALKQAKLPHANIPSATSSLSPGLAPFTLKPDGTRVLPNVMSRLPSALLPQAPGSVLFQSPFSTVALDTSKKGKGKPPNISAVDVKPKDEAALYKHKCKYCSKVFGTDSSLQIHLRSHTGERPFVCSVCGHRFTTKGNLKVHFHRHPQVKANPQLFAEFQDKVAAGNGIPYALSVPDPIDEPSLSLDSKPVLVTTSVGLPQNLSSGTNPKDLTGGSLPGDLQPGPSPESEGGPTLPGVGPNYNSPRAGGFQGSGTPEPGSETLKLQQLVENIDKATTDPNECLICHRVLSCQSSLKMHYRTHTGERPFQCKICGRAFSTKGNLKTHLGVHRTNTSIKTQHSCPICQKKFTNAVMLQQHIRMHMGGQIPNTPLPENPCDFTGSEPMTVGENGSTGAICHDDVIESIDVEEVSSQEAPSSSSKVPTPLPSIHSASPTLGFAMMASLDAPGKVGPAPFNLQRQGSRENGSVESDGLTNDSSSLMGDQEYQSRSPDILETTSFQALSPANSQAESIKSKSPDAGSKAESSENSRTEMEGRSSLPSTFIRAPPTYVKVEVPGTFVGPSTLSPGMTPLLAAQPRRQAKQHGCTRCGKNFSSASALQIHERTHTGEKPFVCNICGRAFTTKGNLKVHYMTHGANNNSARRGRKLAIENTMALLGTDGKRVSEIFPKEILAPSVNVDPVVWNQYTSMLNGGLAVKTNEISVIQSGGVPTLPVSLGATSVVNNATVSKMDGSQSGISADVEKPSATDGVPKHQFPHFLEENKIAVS
Technique: universal PBM
Form: double-stranded DNA, one strand shown
Medium: in vitro
Concentration: 600 nM
Notes: 8-mer, flanks averaged, mean of replicates
Direction: higher = stronger binding
`CCCATACG` has an E-score of -0.102.
`CTAATCAC` has an E-score of 0.267.
`ACGTTGCC` has an E-score of -0.2.
`AAAATAGT` has an E-score of 0.254.
With `CTAACGAA` the E-score was 0.138.
With `CGTTCTTC` the E-score was 0.0308.
The E-score of `GGTCAATA` is reported as 0.175.
With `AGCTAATG` the E-score was -0.00519.
The E-score of `GGAAAGAA` is reported as -0.0542.
The E-score of `ATACTGCC` is reported as -0.157.
With `CATCCAGC` the E-score was -0.0458.
`CCAATTTC` gave an E-score of 0.135.
The E-score of `ATTTCGAA` is reported as 0.286.
`CGAGCCAC` gave an E-score of -0.272.
With `AGAGGGGA` the E-score was -0.251.
`CTTCGCCA` gave an E-score of -0.161.
`ACCTGAAC` gave an E-score of -0.0738.
With `TCGAAAGA` the E-score was 0.153.
With `CCACATTA` the E-score was 0.2.
The E-score of `ACCCTCCC` is reported as -0.1.
With `CAGGCTAA` the E-score was -0.182.
`GACGCTGA` gave an E-score of -0.111.
`CGTCATAC` gave an E-score of 0.159.
The E-score of `TGCAGGCA` is reported as -0.0216.
With `AAAACATG` the E-score was 0.177.
